Results of several laboratories.
Each numbered part is a random draw from the data of one study; scales do not carry over between parts. Positions count from the first letter of the parent shown.

Block 1
Target: Interferon regulatory factor 7, full length, phosphomimetic (IRF7, Homo sapiens, UniProt Q92985, residues 1-503, S471D/S472D/S475D/S476D/S477D/S483D/S484D/S487D)
Method: protein-binding microarray
Form: double-stranded DNA, one strand shown
Matrix: in vitro
Tested at: 2200 nM top
Notes: 60-bp whole probe
With: salmon DNA 0.4 mg/ml
Relative to: random background probes
Direction: higher = stronger binding
All sequences stand within: GCCTAGCAC … GTCTTGATTCGCTTGACGCTGCTG
Residues (chain): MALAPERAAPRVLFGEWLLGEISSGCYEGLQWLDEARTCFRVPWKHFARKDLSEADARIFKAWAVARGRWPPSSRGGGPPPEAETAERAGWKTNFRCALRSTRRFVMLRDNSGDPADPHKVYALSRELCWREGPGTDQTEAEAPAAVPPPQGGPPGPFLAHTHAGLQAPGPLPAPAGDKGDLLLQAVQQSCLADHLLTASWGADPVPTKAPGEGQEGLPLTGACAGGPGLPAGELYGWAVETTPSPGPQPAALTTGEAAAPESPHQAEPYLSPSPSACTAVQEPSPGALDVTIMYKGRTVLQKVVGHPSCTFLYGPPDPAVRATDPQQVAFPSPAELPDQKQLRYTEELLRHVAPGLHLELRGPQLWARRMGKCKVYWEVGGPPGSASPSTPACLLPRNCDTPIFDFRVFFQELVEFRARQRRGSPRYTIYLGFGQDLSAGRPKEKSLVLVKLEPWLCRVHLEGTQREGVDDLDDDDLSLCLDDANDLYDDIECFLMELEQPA
| Sequence | fitted relative affinity |
| --- | --- |
| GTTTTTCTCCTATTTAAGACGTGCTAG | 2.63 z-score |
| TTAGGACTGGGGTTCCGGTTAGTGCTA | -0.363 z-score |
| GACGGTTTCGGGTATCGGGATGTGCTA | 6.11 z-score |
| GACGGACTGGGGTATCGTGACGTGCTA | -0.693 z-score |
| GACGTTCTCCTTTTCCTGACGTGCTAG | 2.39 z-score |
| TCAAATTTTGCTTCTAGACTGTGCTAG | 0.537 z-score |
| GACGTACTGGACACTGGGGACGTGCTA | -0.421 z-score |
| TTGGGTCTCCTTTTCCTTTAGTGCTAG | 1.79 z-score |
| CTTGCTTTCCTACTGAAATAGTGCTAG | 2.12 z-score |
| GACGGTCTCGGTCCCGGGACGTGCTAG | -0.271 z-score |
| GACGAACTGGGGGCTGGAGACGTGCTA | 0.531 z-score |
| TTAGATTTCGGGACTCGATTAGTGCTA | 1.62 z-score |
| GAAGATATCAGACTGGAGACGTGCTAG | -0.403 z-score |
| TTCCCTCCCTAATTCTGATTGTGCTAG | 2.74 z-score |
| GACGCTTTCAGTATCGAGACGTGCTAG | 2.8 z-score |
| GACGATTTCAGGTTTCGAGACGTGCTA | 2.95 z-score |
| TTAGGTATCGGGACCGGGTTAGTGCTA | -0.552 z-score |
| TTAGGTCTCCTACTCCTTTAGTGCTAG | 0.839 z-score |

Block 2
Target: CCNA1, cyclin fold, Cln2 fusion (human)
Method: yeast growth competition, sequencing
Matrix: yeast
Notes: strong parent motif
Relative to: not given
Direction: higher = stronger binding
Starting sequence: E2F1 docking peptide (human); PPVKRRLDFETDH
| Substitution | normalised enrichment score |
| --- | --- |
| V3Q | 0.355 |
| F9A | 0.102 |
| F9D | -0.0971 |
| V3L | 0.882 |
| D12W | 1.52 |
| R5E | -0.232 |
| K4R | 1.56 |
| D12Y | 1.77 |
| F9V | 0.196 |
| D8A | 1.74 |
| D8Y | 2.06 |
| L7N | 0.00935 |
| P2W | 1.29 |
| R5D | 0.217 |
| V3H | 0.604 |
| R6M | 1.3 |
| D12V | 2.1 |
| V3M | 0.744 |

Block 3
Target: ABI1, truncated, D143A, DHFR fusion (Arabidopsis thaliana)
Method: DHFR PCA, deep sequencing
Matrix: yeast
Notes: methotrexate growth selection, single substitutions
With: (+)-ABA 0.032 µM
Relative to: wild-type fitted maximum
Direction: higher = stronger binding
Starting sequence: PYL1, truncated, DHFR fusion (Arabidopsis thaliana); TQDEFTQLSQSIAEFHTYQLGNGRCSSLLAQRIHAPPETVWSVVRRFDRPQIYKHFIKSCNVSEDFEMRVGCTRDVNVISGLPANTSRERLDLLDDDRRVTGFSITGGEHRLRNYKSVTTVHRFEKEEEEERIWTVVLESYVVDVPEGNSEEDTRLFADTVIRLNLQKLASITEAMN
| Substitution | relative binding score [%] |
| --- | --- |
| H16Q | 3.62 |
| R32Y | 5.13 |
| F5N | -8.01 |
| T106K | -2.58 |
| L164N | -1.52 |
| S140M | 0.996 |
| R24M | 17.7 |
| Q167R | 21.2 |
| L94G | -2.11 |
| K116F | -4.79 |
| R74P | 2.02 |
| E139M | 2.86 |
| R88M | 0.611 |
| P36C | 10.3 |
| N165C | 4.01 |
| M68D | 3.79 |
| D159I | -1.33 |
| K58Q | 9.09 |
| G23M | 4.28 |
| Q51S | 7.69 |
| S26D | -2.12 |
| E4K | 6.34 |
| S117W | -5.26 |
| D75S | 18 |
| S150T | 43.3 |

Block 4
Target: Prothrombin, mature alpha-thrombin (F2, Homo sapiens, UniProt P00734)
Method: aptamer microarray, sandwich
Form: DNA with 2'F-ANA
Matrix: in vitro
Tested at: 200 nM
Notes: whole 15-mer aptamer, many near background
With: Cy3 exosite-II aptamer, 400 nM
Direction: higher = stronger binding
Sequence: GGTTGGTGTGGTTGG
| Modification | mean fluorescence intensity [a.u.] |
| --- | --- |
| 2'F-ANA at 1 2 3 15 | 264 |
| 2'F-ANA at 7 12 14 15 | 284 |
| 2'F-ANA at 3 4 5 9 10 11 13 14 15 | 47.8 |
| 2'F-ANA at 4 7 8 9 10 11 12 14 15 | 70.6 |
| 2'F-ANA at 1 3 5 6 7 12 13 14 | 48.2 |
| 2'F-ANA at 9 11 | 526 |
| 2'F-ANA at 1 4 7 8 9 10 11 12 14 | 49.5 |
| 2'F-ANA at 1 3 4 6 7 8 11 14 15 | 71.2 |
| 2'F-ANA at 1 2 5 6 8 9 12 14 15 | 56.5 |
| 2'F-ANA at 1 3 5 7 8 10 11 13 15 | 48.5 |
| 2'F-ANA at 1 3 5 8 9 10 11 12 | 49.3 |
| 2'F-ANA at 1 2 3 4 13 14 | 64.1 |
| 2'F-ANA at 1 5 6 7 8 10 11 12 14 | 44.9 |
| 2'F-ANA at 1 3 4 6 7 11 12 14 15 | 76.9 |
| 2'F-ANA at 1 2 4 6 7 8 10 12 14 15 | 51 |
| 2'F-ANA at 1 2 3 4 6 7 13 | 103 |
| 2'F-ANA at 4 7 8 10 12 13 14 15 | 63.9 |
| 2'F-ANA at 1 2 3 4 8 12 13 14 | 82 |
| 2'F-ANA at 3 5 6 7 8 12 13 | 212 |
| 2'F-ANA at 2 5 6 9 10 11 12 | 49.2 |
| 2'F-ANA at 2 3 5 9 12 13 14 | 64.4 |
| 2'F-ANA at 1 5 8 10 11 14 | 49.2 |
| 2'F-ANA at 1 4 7 8 14 15 | 58.4 |
| 2'F-ANA at 1 6 8 10 11 13 15 | 53 |
| 2'F-ANA at 6 7 8 9 11 12 13 15 | 564 |
